Published values collected from several papers.
Numbered parts are unrelated; each lists some results of a single study. Several values in a cell are separate wells, animals, samples, runs or records.

Sample 1
Cell line: L444P/L444P Gaucher fibroblasts
Method: 4-MUG hydrolysis in lysate
Tested at: 1 µM
Time: 72 h
Reference: vehicle
| SMILES | enzyme activity |
| --- | --- |
| CCOc1ccc2nc(Sc3nc(NCCN4CCOCC4)nc(Nc4ccc(I)cc4)n3)sc2c1 | 104% |
| Fc1ccc(Nc2nc(NCCN3CCOCC3)nc(N3CCOCC3)n2)cc1 | 98% |
| c1ccc(Nc2nc(NCCN3CCOCC3)nc(N3CCOCC3)n2)cc1 | 98% |
| Ic1ccc(Nc2nc(N3CCOCC3)nc(N3CCOCC3)n2)cc1 | 166% |
| CCOc1ccc2nc(Sc3nc(Nc4ccc(I)cc4)nc(N4CCOCC4)n3)sc2c1 | 112% and 114% and 116% and 110% and 122% |
| Ic1ccc(Nc2nc(NCCc3c[nH]c4ccccc34)nc(NCCN3CCOCC3)n2)cc1 | 94% |
| Ic1ccc(Nc2nc(NCCN3CCCCC3)nc(N3CCOCC3)n2)cc1 | 111% |
| Ic1ccc(Nc2nc(NCCN3CCOCC3)nc(NC3CCCCC3)n2)cc1 | 95% |
| Cc1ccc(Nc2nc(NCCN3CCOCC3)nc(N3CCOCC3)n2)cc1 | 108% |
| CCN(CC)c1nc(NCCN2CCOCC2)nc(Nc2ccc(I)cc2)n1 | 94% |
| Ic1ccc(Nc2nc(NCCN3CCOCC3)nc(N3CC4CCC(C3)O4)n2)cc1 | 102% |
| CCOc1ccc2nc(Sc3nc(N4CCOCC4)nc(N4CCOCC4)n3)sc2c1 | 102% |

Sample 2
SMILES: CN1C(=O)C(O)(C(=O)O)Oc2cc(F)ccc21 (centres unmarked)
| organism | assay | system | conditions | scale | inhibition |
| --- | --- | --- | --- | --- | --- |
| Arabidopsis thaliana | root length | Col-0, seedlings | 50 µg/mL | reference: water control | 36.5% |
| Arabidopsis thaliana | hypocotyl length | Col-0 | 12.5 µg/mL, 7 days, seed germination, dark |  | 18.4% |
| Arabidopsis thaliana | hypocotyl length | Col-0, seedlings | 100 µg/mL |  | 44.6% |
| Amaranthus retroflexus | fresh weight |  | 150 g ai/ha, post-emergence treatment |  | 44.4% and 44.1% and 41.9% |
| Arabidopsis thaliana | root length | Col-0, seedlings | 25 µg/mL |  | 29.5% |
| Arabidopsis thaliana | root length | Col-0, seedlings | 6.25 µg/mL | reference: water control | 11.9% |
| Avena fatua | fresh weight |  | 150 g ai/ha, pre-emergence treatment |  | 100% |
| Arabidopsis thaliana | root length | Col-0, seedlings | 50 µg/mL |  | 36.5% |
| Glycine max | fresh weight |  | soil surface spray, 150 g ai/ha, 21 days, pre-emergence crop safety |  | 4.1% and 3.7% and 4.2% |
| Arabidopsis thaliana | hypocotyl length | Col-0 | 25.0 µg/mL, 7 days, seed germination, dark |  | 24.4% |
| Arabidopsis thaliana | hypocotyl length | Col-0 | 100 µg/mL, 7 days, seed germination, dark |  | 44.6% |
| Arabidopsis thaliana | hypocotyl length | Col-0, seedlings | 12.5 µg/mL |  | 18.4% |
| Arabidopsis thaliana | root length | Col-0, seedlings | 25 µg/mL | reference: water control | 29.5% |
| Arabidopsis thaliana | root length | Col-0, seedlings | 3.125 µg/mL |  | 7.57% |

Sample 3
SMILES: C[C@@H]1CN(c2ccc(-c3cc(C(=O)NCCOCCOCCOCCOCCOCCOCCNC(=O)/C=C/c4[nH]cc(C(=O)N[C@@H](CC(N)=O)c5ccc(F)c(Cl)c5)c4-c4ccc(Cl)cc4F)ccc3F)cc2NC(=O)c2ccc(F)cc2C(F)(F)F)C[C@H](C)N1C
Read-out: thermal unfolding
Method: differential scanning fluorimetry
Tested at: 5.5 µM
Direction: higher = more unfolded
DCAF1: DDB1- and CUL4-associated factor 1 (DCAF1, Homo sapiens, UniProt Q9Y4B6)
Sequence of UniProt Q9Y4B6 (whole entry, looked up): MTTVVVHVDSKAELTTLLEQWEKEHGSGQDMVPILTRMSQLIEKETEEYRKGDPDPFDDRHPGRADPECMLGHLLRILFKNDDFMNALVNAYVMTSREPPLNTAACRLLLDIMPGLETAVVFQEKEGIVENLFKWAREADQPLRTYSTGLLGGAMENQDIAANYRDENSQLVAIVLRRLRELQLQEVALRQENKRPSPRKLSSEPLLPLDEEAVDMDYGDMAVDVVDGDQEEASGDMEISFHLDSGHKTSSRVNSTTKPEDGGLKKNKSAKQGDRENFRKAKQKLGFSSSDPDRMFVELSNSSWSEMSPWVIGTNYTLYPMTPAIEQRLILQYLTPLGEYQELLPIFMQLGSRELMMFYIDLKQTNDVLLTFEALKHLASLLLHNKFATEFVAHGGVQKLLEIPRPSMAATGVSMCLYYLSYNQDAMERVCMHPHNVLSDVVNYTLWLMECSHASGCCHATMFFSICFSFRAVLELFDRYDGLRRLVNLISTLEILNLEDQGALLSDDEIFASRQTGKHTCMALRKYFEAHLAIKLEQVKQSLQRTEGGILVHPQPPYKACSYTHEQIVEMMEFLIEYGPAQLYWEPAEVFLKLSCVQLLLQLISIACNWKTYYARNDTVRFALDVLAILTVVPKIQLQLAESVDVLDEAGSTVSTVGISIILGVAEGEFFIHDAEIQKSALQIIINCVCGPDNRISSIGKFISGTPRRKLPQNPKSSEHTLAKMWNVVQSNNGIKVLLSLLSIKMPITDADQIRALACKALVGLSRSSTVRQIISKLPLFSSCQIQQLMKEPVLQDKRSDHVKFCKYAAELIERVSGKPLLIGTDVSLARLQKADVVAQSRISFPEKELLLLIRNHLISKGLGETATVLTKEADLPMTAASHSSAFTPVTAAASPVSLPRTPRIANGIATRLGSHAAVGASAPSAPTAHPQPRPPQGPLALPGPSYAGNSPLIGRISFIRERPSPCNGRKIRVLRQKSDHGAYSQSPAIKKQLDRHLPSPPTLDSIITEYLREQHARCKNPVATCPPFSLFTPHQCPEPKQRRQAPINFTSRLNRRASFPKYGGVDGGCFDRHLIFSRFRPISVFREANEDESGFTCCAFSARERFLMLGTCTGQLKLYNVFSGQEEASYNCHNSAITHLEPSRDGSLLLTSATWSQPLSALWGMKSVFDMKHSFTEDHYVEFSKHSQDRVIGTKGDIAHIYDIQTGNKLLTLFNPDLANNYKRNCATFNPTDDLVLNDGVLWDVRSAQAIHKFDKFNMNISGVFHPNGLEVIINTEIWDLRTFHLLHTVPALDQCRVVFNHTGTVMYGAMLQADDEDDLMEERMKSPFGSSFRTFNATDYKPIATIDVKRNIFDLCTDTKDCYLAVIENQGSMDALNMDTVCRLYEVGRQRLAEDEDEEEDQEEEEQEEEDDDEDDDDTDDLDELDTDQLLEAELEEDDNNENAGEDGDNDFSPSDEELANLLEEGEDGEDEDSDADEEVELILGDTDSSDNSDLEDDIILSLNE
WDR5: WD repeat-containing protein 5 (WDR5, Homo sapiens, UniProt P61964)
| target | temperature | SYPRO Orange fluorescence [a.u.] |
| --- | --- | --- |
| DCAF1 | 33.8 °C | 9480 |
| WDR5 | 28.4 °C | 13500 |
| DCAF1 | 42 °C | 12800 |
| WDR5 | 62.61 °C | 15300 |
| DCAF1 | 56.61 °C | 32700 |
| DCAF1 | 61.21 °C | 51000 |
| WDR5 | 76.41 °C | 54600 |

Sample 4
Compound: CCN1/C(=C/C=C2\CCCC(/C=C/C3=[N+](CC)c4ccccc4C3(C)C)=C2NCCCCCCCCN2CCC(Nc3nc4ccccc4n3Cc3ccc(F)cc3)CC2)C(C)(C)c2ccccc21
Cell line: U-87 MG
Tested at: concentration not given
Reference: DMSO
| measured | log2 fold change |
| --- | --- |
| ITPR1 mRNA | 1 |
| TNFSF10 mRNA | -3.63 |
| MUC20 mRNA | 3.62 |
| OTUD1 mRNA | 1.03 |
| CLIP4 mRNA | 1.11 |
| EYA1 mRNA | -1.31 |
| GALNT15 mRNA | -3.48 |
| ASNS mRNA | 1.76 |
| ARHGEF39 mRNA | -1.51 |
| OSGIN1 mRNA | 1.45 |
| MAP1LC3B mRNA | 1.85 |

Some of these lines once more (sample 4):
| measured | log2 fold change |
| --- | --- |
| ITPR1 mRNA | 1 |
| MUC20 mRNA | 3.62 |
| OTUD1 mRNA | 1.03 |
| CLIP4 mRNA | 1.11 |
| ASNS mRNA | 1.76 |
| GALNT15 mRNA | -3.48 |
| EYA1 mRNA | -1.31 |
